Experimental data of several laboratories.
A part holds a random share of what one study measured.
Chain of UniProt Q9NRM7 (whole entry, looked up): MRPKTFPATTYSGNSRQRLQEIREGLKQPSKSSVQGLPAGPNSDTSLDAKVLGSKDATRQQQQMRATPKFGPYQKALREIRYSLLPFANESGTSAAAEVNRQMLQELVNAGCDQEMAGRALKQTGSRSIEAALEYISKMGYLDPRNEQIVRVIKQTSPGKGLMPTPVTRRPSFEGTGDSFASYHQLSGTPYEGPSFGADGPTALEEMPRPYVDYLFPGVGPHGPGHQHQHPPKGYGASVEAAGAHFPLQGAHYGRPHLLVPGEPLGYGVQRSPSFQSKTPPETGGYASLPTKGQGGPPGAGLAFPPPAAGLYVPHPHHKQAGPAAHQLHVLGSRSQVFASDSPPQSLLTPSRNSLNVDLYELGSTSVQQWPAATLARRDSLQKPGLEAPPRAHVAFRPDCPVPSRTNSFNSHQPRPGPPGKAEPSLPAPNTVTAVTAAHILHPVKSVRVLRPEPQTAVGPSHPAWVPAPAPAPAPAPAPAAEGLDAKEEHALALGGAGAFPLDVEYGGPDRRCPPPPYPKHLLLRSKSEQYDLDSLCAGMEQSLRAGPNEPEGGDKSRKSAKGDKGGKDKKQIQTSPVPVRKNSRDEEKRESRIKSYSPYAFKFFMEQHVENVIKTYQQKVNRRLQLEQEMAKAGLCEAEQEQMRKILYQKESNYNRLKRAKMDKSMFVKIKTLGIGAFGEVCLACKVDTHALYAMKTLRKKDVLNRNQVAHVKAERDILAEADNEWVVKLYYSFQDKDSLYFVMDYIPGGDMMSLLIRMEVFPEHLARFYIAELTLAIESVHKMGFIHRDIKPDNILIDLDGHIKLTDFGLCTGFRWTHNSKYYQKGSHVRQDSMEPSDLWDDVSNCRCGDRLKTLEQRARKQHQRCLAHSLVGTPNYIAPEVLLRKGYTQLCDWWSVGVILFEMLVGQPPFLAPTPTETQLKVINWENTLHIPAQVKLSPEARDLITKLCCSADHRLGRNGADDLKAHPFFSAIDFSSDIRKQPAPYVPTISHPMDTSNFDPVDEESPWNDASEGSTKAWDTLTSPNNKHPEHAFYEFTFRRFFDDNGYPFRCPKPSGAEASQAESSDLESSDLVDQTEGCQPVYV
Chain of UniProt O75676 (whole entry, looked up): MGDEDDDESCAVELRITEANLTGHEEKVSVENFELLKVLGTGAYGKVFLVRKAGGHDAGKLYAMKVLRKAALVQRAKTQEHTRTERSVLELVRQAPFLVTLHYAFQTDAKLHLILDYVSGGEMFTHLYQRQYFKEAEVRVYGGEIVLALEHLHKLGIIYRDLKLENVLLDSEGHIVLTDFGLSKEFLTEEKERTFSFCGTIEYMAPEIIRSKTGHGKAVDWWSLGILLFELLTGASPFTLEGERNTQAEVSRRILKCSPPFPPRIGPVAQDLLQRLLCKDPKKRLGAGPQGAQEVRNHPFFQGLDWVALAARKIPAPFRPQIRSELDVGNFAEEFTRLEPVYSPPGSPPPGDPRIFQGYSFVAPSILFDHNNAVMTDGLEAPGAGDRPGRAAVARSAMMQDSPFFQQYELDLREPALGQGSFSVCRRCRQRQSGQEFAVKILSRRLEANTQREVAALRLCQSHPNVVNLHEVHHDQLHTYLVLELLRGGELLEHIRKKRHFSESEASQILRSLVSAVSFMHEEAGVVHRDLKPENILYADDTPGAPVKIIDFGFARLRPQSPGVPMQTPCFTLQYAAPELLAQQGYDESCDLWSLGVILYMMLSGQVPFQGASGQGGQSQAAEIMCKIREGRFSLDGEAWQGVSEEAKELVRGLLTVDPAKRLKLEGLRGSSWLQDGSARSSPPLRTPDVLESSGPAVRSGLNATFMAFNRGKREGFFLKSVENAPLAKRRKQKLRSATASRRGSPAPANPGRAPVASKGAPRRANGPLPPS
Chain of UniProt Q9Y2I7 (whole entry, looked up): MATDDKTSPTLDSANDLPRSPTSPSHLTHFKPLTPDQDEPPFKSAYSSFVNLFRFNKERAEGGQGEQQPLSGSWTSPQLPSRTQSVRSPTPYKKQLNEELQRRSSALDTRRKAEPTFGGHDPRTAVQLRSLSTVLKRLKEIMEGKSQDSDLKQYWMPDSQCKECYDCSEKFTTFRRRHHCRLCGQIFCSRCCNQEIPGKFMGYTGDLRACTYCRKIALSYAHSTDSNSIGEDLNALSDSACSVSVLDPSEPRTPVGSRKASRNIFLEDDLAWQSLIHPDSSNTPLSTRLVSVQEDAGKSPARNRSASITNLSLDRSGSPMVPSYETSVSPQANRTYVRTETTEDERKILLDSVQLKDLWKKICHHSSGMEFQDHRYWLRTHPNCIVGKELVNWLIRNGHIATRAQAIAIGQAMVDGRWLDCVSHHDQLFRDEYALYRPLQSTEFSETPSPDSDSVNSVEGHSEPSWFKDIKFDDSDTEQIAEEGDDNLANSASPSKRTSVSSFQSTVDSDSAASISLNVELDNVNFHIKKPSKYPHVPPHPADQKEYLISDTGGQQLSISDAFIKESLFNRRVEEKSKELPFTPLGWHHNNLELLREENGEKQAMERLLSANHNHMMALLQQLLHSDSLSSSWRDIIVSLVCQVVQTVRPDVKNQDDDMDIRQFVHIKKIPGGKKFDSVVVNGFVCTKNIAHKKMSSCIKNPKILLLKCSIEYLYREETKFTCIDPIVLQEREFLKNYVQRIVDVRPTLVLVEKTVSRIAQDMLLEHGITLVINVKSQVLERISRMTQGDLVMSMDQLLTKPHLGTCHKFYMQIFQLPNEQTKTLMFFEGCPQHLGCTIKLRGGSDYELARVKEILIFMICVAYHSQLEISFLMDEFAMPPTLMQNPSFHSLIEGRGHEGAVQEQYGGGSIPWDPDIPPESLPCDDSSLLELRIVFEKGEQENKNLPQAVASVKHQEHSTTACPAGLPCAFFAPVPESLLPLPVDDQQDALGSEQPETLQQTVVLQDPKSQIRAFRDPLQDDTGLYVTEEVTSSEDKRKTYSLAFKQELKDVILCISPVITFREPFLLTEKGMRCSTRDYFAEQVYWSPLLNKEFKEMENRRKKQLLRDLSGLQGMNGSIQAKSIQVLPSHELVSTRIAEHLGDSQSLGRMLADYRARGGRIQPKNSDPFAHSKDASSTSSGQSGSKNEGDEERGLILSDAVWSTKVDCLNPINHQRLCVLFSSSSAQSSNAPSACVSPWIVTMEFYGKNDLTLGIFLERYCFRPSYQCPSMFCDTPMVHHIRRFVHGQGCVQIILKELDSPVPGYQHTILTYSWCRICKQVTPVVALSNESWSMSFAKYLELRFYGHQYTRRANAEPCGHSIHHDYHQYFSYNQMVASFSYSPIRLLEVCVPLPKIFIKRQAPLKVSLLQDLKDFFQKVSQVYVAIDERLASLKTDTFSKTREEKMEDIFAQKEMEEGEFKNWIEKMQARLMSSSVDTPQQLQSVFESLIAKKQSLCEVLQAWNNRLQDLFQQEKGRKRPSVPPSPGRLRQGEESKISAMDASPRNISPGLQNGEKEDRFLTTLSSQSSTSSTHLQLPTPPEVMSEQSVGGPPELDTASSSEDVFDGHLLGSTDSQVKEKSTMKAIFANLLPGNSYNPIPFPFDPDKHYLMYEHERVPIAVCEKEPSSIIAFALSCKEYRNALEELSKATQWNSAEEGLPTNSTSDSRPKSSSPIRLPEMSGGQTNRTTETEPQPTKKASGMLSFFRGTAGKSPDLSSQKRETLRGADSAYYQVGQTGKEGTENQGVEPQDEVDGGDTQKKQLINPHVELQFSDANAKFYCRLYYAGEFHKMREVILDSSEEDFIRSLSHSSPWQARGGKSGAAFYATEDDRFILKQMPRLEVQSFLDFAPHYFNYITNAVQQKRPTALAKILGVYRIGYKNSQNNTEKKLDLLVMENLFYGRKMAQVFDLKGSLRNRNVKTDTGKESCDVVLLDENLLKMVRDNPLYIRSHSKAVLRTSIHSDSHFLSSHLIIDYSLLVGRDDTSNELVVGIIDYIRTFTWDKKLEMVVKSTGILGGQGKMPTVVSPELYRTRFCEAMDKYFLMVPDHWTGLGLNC
Chain of UniProt Q9C098 (whole entry, looked up): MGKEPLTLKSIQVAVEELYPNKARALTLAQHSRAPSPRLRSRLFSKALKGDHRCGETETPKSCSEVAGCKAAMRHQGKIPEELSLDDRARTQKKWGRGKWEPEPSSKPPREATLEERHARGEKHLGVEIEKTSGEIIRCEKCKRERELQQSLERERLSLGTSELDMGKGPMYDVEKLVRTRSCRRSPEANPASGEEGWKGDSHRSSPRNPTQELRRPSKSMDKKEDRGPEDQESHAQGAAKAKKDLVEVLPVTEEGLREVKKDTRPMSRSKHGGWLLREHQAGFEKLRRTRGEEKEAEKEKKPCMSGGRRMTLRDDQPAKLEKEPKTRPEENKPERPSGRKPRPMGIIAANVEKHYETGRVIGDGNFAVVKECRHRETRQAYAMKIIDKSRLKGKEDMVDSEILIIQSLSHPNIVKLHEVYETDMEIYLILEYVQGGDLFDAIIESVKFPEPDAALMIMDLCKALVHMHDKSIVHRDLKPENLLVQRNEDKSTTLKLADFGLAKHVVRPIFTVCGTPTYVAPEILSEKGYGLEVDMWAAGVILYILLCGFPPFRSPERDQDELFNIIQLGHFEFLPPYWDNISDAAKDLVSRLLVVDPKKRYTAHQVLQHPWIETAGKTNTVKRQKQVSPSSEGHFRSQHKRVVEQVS

Set 1 — observed: cell-free assay; technique: competition with immobilised ligand; tested at: 1 µM
Structure (SMILES): O=C(Nc1cccnn1)N1CCC(=Cc2cccc(Oc3ccc(C(F)(F)F)cn3)c2)CC1
For YES1 (Homo sapiens, UniProt P07947): remaining binding read 100%.
PLK2 (Homo sapiens, UniProt Q9NYY3) — remaining binding: 100%.
For DYRK1A (Homo sapiens, UniProt Q13627): remaining binding read 100%.
MET (Homo sapiens, UniProt P08581) — remaining binding: 100%.
It gave 79% for remaining binding (DDR1 (Homo sapiens, UniProt Q08345)).
LATS2 (Homo sapiens, UniProt Q9NRM7) — remaining binding: 84%.
The remaining binding was 97% (RIPK1 (Homo sapiens, UniProt Q13546)).
The remaining binding was 81% (KIT (Homo sapiens, UniProt P10721)).
PIK3CA (Homo sapiens, UniProt P42336, H1047Y) — remaining binding: 82%.
It gave 99% for remaining binding (Tyrosine-protein kinase ABL1, phosphorylated (ABL1, Homo sapiens, UniProt P00519, Q252H)).
For PIKFYVE (Homo sapiens, UniProt Q9Y2I7): remaining binding read 100%.
PAK2 (Homo sapiens, UniProt Q13177) — remaining binding: 83%.
SGK3 (Homo sapiens, UniProt Q96BR1) — remaining binding: 93%.
SRPK2 (Homo sapiens, UniProt P78362) — remaining binding: 100%.
The remaining binding was 85% (DCLK3 (Homo sapiens, UniProt Q9C098)).
For SBK3 (Homo sapiens, UniProt P0C264): remaining binding read 100%.
CAMK2A (Homo sapiens, UniProt Q9UQM7) — remaining binding: 72%.
It gave 77% for remaining binding (STK4 (Homo sapiens, UniProt Q13043)).
The remaining binding was 86% (Tyrosine-protein kinase ABL1, non-phosphorylated (ABL1, Homo sapiens, UniProt P00519, H396P)).
The remaining binding was 100% (TNK2 (Homo sapiens, UniProt Q07912)).
MAP2K2 (Homo sapiens, UniProt P36507) — remaining binding: 100%.
For Ribosomal protein S6 kinase alpha-4, C-terminal kinase domain (RPS6KA4, Homo sapiens, UniProt O75676): remaining binding read 100%.
For EPHB1 (Homo sapiens, UniProt P54762): remaining binding read 100%.
For Tyrosine-protein kinase ABL1, non-phosphorylated (ABL1, Homo sapiens, UniProt P00519): remaining binding read 68%.
RAF1 (Homo sapiens, UniProt P04049) — remaining binding: 63%.

Set 2 — observed: enzyme activity; mode: inhibitor; tested at: 0.5 µM; baseline: control
Target: Serine/threonine-protein kinase pim-2 (PIM2, Homo sapiens, UniProt Q9P1W9)
Chain of UniProt Q9P1W9 (whole entry, looked up): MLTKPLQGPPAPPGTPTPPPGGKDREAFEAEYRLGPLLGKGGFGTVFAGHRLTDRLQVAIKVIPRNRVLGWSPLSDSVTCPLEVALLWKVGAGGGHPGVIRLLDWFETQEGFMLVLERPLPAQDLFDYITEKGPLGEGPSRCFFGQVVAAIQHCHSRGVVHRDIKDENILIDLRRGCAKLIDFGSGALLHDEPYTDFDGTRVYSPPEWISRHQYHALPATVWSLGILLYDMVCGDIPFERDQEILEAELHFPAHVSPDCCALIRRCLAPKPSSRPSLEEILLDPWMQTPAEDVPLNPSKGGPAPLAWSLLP
The remaining activity of `Cc1nc(-c2ccccc2)c(-c2ccncc2)o1` is reported as 110%.
The remaining activity of `N#CC(C#N)=C(N)/C(C#N)=C/c1ccc(O)cc1` is reported as 88.2%.
With `Cn1c2ccccc2c2c3c(c4c5ccccc5n(CCC#N)c4c21)CNC3=O` the remaining activity was 101%.
For `O=C(CCCc1ccc(-c2ccccc2F)cc1)Nc1ccc(O)cc1`, the remaining activity was 115%.
`OCC(O)CCON=C1C(c2c(O)[nH]c3ccccc23)=Nc2ccccc21` (stereo not drawn) has a remaining activity of 99.5%.
`CN(C)c1ccc(C=C2C(=O)Nc3ccccc32)cc1` has a remaining activity of 82.4%.
`COc1ccc(C(=O)Nc2sc3c(c2C(N)=O)CCCC3)cc1OC` gave a remaining activity of 98.5%.
`O=c1c2ccccc2[nH]c(=S)n1CCN1CCC(=C(c2ccc(F)cc2)c2ccc(F)cc2)CC1` gave a remaining activity of 128%.
`COc1cc2ncnc(Nc3ccc(F)c(Cl)c3)c2cc1OCCCN1CCOCC1` has a remaining activity of 96.2%.
For `Nc1ncnc2n[nH]c(Nc3ccc(F)cc3)c12`, the remaining activity was 89.3%.
The remaining activity of `Cn1sc(=O)n(Cc2ccccc2)c1=O` is reported as 107%.
The remaining activity of `O=C(Nc1cccc(Nc2cc(Nc3cccc(C(F)(F)F)c3)ncn2)c1)C1CC1` is reported as 104%.
`Cc1cccc(-c2[nH]c(C(C)(C)C)nc2-c2ccc3c(c2)OCO3)n1` gave a remaining activity of 99.7%.
With `CO[C@H]1C[C@@H]2CC[C@@H](C)[C@@](O)(O2)C(=O)C(=O)N2CCCC[C@H]2C(=O)O[C@H]([C@H](C)C[C@@H]2CC[C@@H](O)[C@H](OC)C2)CC(=O)[C@H](C)/C=C(\C)[C@@H](O)[C@@H](OC)C(=O)[C@H](C)C[C@H](C)/C=C/C=C/C=C/1C` the remaining activity was 102%.

Set 3 — technique: protein-binding microarray; form: hairpin DNA; medium: in vitro; tested at: not given; baseline: not given; direction: higher = stronger binding; all sequences stand within: GCAGGCC … GGCCTGCACACTCTTTCCCTACACGAC
Target: Transcription factor SOX-2, HMG box (SOX2, Homo sapiens, UniProt P48431, residues 37-118)
Chain of UniProt P48431 (37-118, looked up): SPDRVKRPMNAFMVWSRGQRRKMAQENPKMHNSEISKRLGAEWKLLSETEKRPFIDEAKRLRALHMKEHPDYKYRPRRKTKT
Notes: whole hairpin DNA, median over replicate spots
The median fluorescence of `CACAACTGGCCTCCTGGCCAGTTGTG` is reported as 2500 a.u.
`CATAATGGGCCTCCTGGCCCATTATG` gave a median fluorescence of 3060 a.u.
For `CACAATCTGCCTCCTGGCAGATTGTG`, the median fluorescence was 2970 a.u.
For `GACAATGGGCCTCCTGGCCCATTGTC (5mC at 33)`, the median fluorescence was 3440 a.u.
The median fluorescence of `CACAGTGGGCCTCCTGGCCCACTGTG` is reported as 2410 a.u.
For `CACAGTGGGCCTCCTGGCCCACTGTG (5mC at 29)`, the median fluorescence was 2390 a.u.
`CACAATGGGCCTCCTGGCCCATTGTG (5mC at 26)` has a median fluorescence of 3490 a.u.
`CACCATGGGCCTCCTGGCCCATGGTG (5mC at 11)` has a median fluorescence of 2440 a.u.

Further values, each from its own experiment — technique: cross-linking MS; medium: cell fractions; together with: DSSO
`BOP1 (Homo sapiens, UniProt Q14137)`: cross-linked residues “K339 to K147” (NOC3L (Homo sapiens, UniProt Q8WTT2)).
Under cross-linked residues, `BRMS1L (Homo sapiens, UniProt Q5PSV4)` is recorded as “K118 to K937” (SIN3A (Homo sapiens, UniProt Q96ST3)).
`HAUS7 (Homo sapiens, UniProt Q99871)`: cross-linked residues “K228 to K74” (HAUS2 (Homo sapiens, UniProt Q9NVX0)).
`YWHAQ (Homo sapiens, UniProt P27348)`: cross-linked residues “K9 to K85” (YWHAZ (Homo sapiens, UniProt P63104)).

For quick reference, copied from above (set 1):
SGK3 (Homo sapiens, UniProt Q96BR1) — remaining binding: 93%.
SRPK2 (Homo sapiens, UniProt P78362) — remaining binding: 100%.
The remaining binding was 85% (DCLK3 (Homo sapiens, UniProt Q9C098)).
For SBK3 (Homo sapiens, UniProt P0C264): remaining binding read 100%.
CAMK2A (Homo sapiens, UniProt Q9UQM7) — remaining binding: 72%.
It gave 77% for remaining binding (STK4 (Homo sapiens, UniProt Q13043)).
The remaining binding was 86% (Tyrosine-protein kinase ABL1, non-phosphorylated (ABL1, Homo sapiens, UniProt P00519, H396P)).
The remaining binding was 100% (TNK2 (Homo sapiens, UniProt Q07912)).
